Measured values from different studies.
Lines come from different studies, so protocols differ. Numbers after ± are the reported error.
Cell line: HCT-15

| Compound | effect on | method | tested at | time | endpoint | result |
| --- | --- | --- | --- | --- | --- | --- |
| CC1=CCC23OC2(C)CCC2C(C[N+](C)(C)C)C(=O)OC2C13.[I-] (stereo not shown) | cell growth or viability | SRB | 8.3 µM |  | inhibition | 59.3% |
| Cc1cccc(O)c1C(=O)OCC1(O)C(Nc2ccc3c(c2)Cc2ccccc2-3)C(N)C(NC(=O)N(C)C)(C(C)O)C1(C)O (stereo not shown) | cell growth or viability | SRB |  |  | GI50 | 1.46 µM |
| [Cl][Ag].[Se]=c1n(C2CCCCC2)ccn1C1CCCCC1 | cell growth or viability | MTT |  | 72 h | IC50 | 8.3 µM |
| Cc1cc(C)c(-n2c[n+](-c3c(C)cc(C)cc3C)c3c2-c2cccc4cccc-3c24)c(C)c1.[Cl][Pd-]([Cl])[CH2]C=Cc1ccccc1 | cell growth or viability | MTT |  | 72 h | IC50 | 10.3 µM |
| CC/C=C\C/C=C\C/C=C\C/C=C\C/C=C\C/C=C\CCC(=O)Nc1ccn(C2OC(CO)C(O)C2(F)F)c(=O)n1 (stereo not shown) |  | NCI60 screen |  |  | CC50 | 87.5 µM |
| Cc1cc(C)c(N2CCN(c3c(C)cc(C)cc3C)C2=[Se])c(C)c1.[Cl][Au] | cell growth or viability | MTT |  | 72 h | IC50 | 3.2 µM |
| CC(C)c1cccc(C(C)C)c1-n1c[n+](-c2c(C(C)C)cccc2C(C)C)c2c1-c1cccc3cccc-2c13.[Cl][Pd-]([Cl])[CH2]C=Cc1ccccc1 | cell growth or viability | MTT |  | 72 h | IC50 | 10.6 µM |
| Cc1cc(C)c(-n2ccn(-c3c(C)cc(C)cc3C)c2=[Se])c(C)c1.[Cl][Au] | cell growth or viability | MTT |  | 72 h | IC50 | 2.7 µM |
| C1CCN(C2CCNCC2)CC1.CCCC(CCC)C(=O)[O][Pt]([OH])([Cl])[Cl].CCCCN | cell growth |  |  | 72 h | IC50 | 14.4 ± 2.05 µM |
| F[P-](F)(F)(F)(F)F.OCP(CO)CO.OCP(CO)CO.OCP(CO)CO.OCP(CO)CO.[Cu+] | cell growth or viability | MTT |  | 72 h | IC50 | 0.54 µM |

For quick reference, copied from above:
| Compound | effect on | method | tested at | time | endpoint | result |
| --- | --- | --- | --- | --- | --- | --- |
| [Cl][Ag].[Se]=c1n(C2CCCCC2)ccn1C1CCCCC1 | cell growth or viability | MTT |  | 72 h | IC50 | 8.3 µM |
